Results collected from several papers.
Protocols differ between the studies behind these lines. Values joined by “and” are separate records of one study, mostly repeats; a detail may differ.
FYN: Tyrosine-protein kinase Fyn (FYN, Homo sapiens, UniProt P06241)

SMILES | target | assay | conditions | how to read | measurement | value
CNC(=O)C[C@H](Cc1ccc(C#N)cc1)NC(=O)c1cc(-c2ccc(CN[C@H](C)c3ccc(C)cc3)o2)ccc1Cl | FYN | enzyme activity, inhibitor | 1 µM |  | activity vs control | 112%
Nc1ncc(-c2cc(-c3cnn(CC(F)(F)F)c3)ncc2F)nc1C(=O)NC1CNCC(F)C1 (stereo not drawn) | FYN | enzyme activity | 1 µM | baseline: DMSO control | remaining activity | 82.7%
CNC(=O)C1CCN(c2cc(C)c(F)cc2NC(=O)c2ccc(-c3cc(O)ccc3C)c(C)c2)CC1 | FYN | binding, competition with immobilised ligand | 1 µM |  | remaining binding | 9.6%
COc1ccc(NC(=O)Nc2ccc3c(c2)C(=O)N(C(C)CO)CC(C)C(CN(C)Cc2ccc4c(c2)OCO4)O3)cc1 (stereo not drawn) | FYN | kinase activity, KinaseProfiler | 0.03 µM, species human | baseline: control | remaining activity | 107%
C=CC(=O)Nc1cccc(-c2cnc3[nH]cc(C(=O)NC(C)(C)C)c3n2)c1 | FYN | kinase activity | 0.1 µM |  | inhibition | 25% and 27%
NC(=O)[C@@H](O)C[C@H]1CCc2sc3ncnc(O[C@H]4CC[C@H](N5CCOCC5)CC4)c3c21 | FYN | enzyme activity, inhibitor | 10 µM |  | inhibition | 47%
COc1c(Cl)cccc1Nc1c(-c2ccncc2C#C[C@@]2(C)CCCN2C(=O)/C=C/CN(C)C)[nH]c2c1C(=O)NCC2 | FYN | binding, competition with immobilised ligand | 3 µM |  | remaining binding | 93%
COc1c(OCCCN2CCOCC2)ccc2c1N=C(NC(=O)c1cnc(N)nc1)N1CCN=C21 | FYN | kinase activity, inhibitor | 1 µM | baseline: untreated control | remaining activity | 97%
Cc1cccc(O[C@H]2CCC[C@@H](C(C)CNCc3ccncc3)C2)c1 (relative stereo) | FYN | enzyme activity, inhibitor | 10 µM |  | inhibition | -7%
Cc1ccc(-c2c(/C=C(\C#N)C(=O)NC(C)C)n(CCCO)c3ncnc(N)c23)cc1 | FYN | cell-free assay, competition with immobilised ligand | 1 µM |  | remaining binding | 52%
Cc1cnc2nc1Nc1cccc(c1)COC/C=C/COCc1cc(ccc1OCCN1CCOCC1)N2 | FYN | binding | 0.1 µM |  | remaining binding | 75%
O=C=[N][Ru-4]123([n]4c5ccc(O)cc5c5c6c(c7cc(F)c[n+]1c7c54)C(=O)NC6=O)[S+]1CC[S+]2CC[S+]3CC1 (stereo not drawn) | FYN | enzyme activity | 100 nM, human enzyme, with: 10 µM ATP | baseline: untreated | remaining activity | 77%
O=c1c(-c2ccc(Cl)c(CN3CCOCC3)c2)coc2cc(O)ccc12 | FYN | enzyme activity, inhibitor | 1 µM |  | remaining activity | 113%
CCn1cc(C(=O)O)c(=O)c2c(N)c(F)c(NC3CCCCC3)cc21 | Tyrosine-protein kinase Fyn, isoform a (FYN, Homo sapiens, UniProt P06241) | kinase activity | 0.1 µM, with: ATP at Km |  | inhibition | 4.8%
CCN1CCN(Cc2ccc(NC(=O)c3ccc(C)c(NC(=O)c4cncc(-c5cccs5)c4)c3)cc2C(F)(F)F)CC1 | FYN | binding, competition with immobilised ligand | 1 µM |  | remaining binding | 1.4%

A few entries again:
SMILES | target | assay | conditions | how to read | measurement | value
CCn1cc(C(=O)O)c(=O)c2c(N)c(F)c(NC3CCCCC3)cc21 | Tyrosine-protein kinase Fyn, isoform a (FYN, Homo sapiens, UniProt P06241) | kinase activity | 0.1 µM, with: ATP at Km |  | inhibition | 4.8%
CCN1CCN(Cc2ccc(NC(=O)c3ccc(C)c(NC(=O)c4cncc(-c5cccs5)c4)c3)cc2C(F)(F)F)CC1 | FYN | binding, competition with immobilised ligand | 1 µM |  | remaining binding | 1.4%
